Published values of several laboratories.
Lines come from different studies, so protocols differ. ± marks the error that the study gave.
UniProt O33336, sequence (whole entry, looked up): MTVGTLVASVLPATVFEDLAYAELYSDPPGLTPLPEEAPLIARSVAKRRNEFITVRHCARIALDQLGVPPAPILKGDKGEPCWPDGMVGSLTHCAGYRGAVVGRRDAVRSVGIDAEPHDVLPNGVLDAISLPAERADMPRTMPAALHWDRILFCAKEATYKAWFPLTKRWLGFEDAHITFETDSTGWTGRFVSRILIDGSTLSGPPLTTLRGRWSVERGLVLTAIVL
UniProt P21554, sequence (whole entry, looked up): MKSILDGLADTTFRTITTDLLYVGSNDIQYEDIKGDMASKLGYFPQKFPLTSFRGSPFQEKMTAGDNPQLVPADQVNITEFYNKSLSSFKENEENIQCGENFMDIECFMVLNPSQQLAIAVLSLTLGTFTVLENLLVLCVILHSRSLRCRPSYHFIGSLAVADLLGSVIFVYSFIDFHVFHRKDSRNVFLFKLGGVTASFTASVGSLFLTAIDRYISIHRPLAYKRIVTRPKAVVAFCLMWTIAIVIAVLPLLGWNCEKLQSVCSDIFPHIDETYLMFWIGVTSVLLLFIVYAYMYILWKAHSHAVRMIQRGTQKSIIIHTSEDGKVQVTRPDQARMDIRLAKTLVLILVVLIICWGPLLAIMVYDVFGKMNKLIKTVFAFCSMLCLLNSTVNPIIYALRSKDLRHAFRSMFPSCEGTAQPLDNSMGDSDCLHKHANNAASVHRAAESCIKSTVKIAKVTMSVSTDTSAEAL

SMILES | tested on | test | test system | setting | scale | quantity | result
N=C(N)NCCC[C@@H]1NC(=O)[C@H](CCCCNC(=O)CCOCCOCCOCCOCCNC(=O)CC[C@H](NC(=O)CCOCCOCCOCCOCCNC(=O)CC[C@H](NC(=O)CN2CCN(CC(=O)O)CCN(CC(=O)O)CCN(CC(=O)O)CC2)C(=O)NCCOCCOCCOCCOCCC(=O)N[C@@H](CCC(=O)NCCOCCOCCOCCOCCC(=O)NCCCC[C@@H]2NC(=O)[C@@H](Cc3ccccc3)NC(=O)[C@H](CC(=O)O)NC(=O)CNC(=O)[C@H](CCCNC(=N)N)NC2=O)C(=O)NCCOCCOCCOCCOCCC(=O)NCCCC[C@@H]2NC(=O)[C@@H](Cc3ccccc3)NC(=O)[C@H](CC(=O)O)NC(=O)CNC(=O)[C@H](CCCNC(=N)N)NC2=O)C(=O)NCCOCCOCCOCCOCCC(=O)NCCCC[C@@H]2NC(=O)[C@@H](Cc3ccccc3)NC(=O)[C@H](CC(=O)O)NC(=O)CNC(=O)[C@H](CCCNC(=N)N)NC2=O)NC(=O)[C@@H](Cc2ccccc2)NC(=O)[C@H](CC(=O)O)NC(=O)CNC1=O [indium-111 labelled] | – | – | female athymic nude mice, intestine | intravenous, 3 µCi, 1 h, U-87 MG glioma xenograft | – | tissue uptake | 11.5 %ID/g
Cc1nc(=O)c2cc(CN(C)c3ccc(C(=O)N[C@@H](CCC(=O)O)c4nnn[nH]4)s3)ccc2[nH]1 | 4'-phosphopantetheinyl transferase PptT (Mycobacterium tuberculosis, UniProt O33336) | enzyme activity, inhibitor, fluorescence polarization | – | – | – | Hill slope | 1.8
CCCCCn1cc(C(=O)c2cccc3ccccc23)c2ccccc21 | Cannabinoid receptor 1 (CNR1, Homo sapiens, UniProt P21554) | β-arrestin 2 recruitment, agonist, BRET | – | – | relative to: CB1 minus CB2 | Emax difference | ~90%
N=C(N)NCCC[C@@H]1NC(=O)[C@H](CCCCNC(=O)CNC(=O)CNC(=O)CNC(=O)CC[C@H](NC(=O)CCOCCOCCOCCOCCNC(=O)CC[C@H](NC(=O)CN2CCN(CC(=O)O)CCN(CC(=O)O)CCN(CC(=O)O)CC2)C(=O)NCCOCCOCCOCCOCCC(=O)N[C@@H](CCC(=O)NCC(=O)NCC(=O)NCC(=O)NCCCC[C@@H]2NC(=O)[C@@H](Cc3ccccc3)NC(=O)[C@H](CC(=O)O)NC(=O)CNC(=O)[C@H](CCCNC(=N)N)NC2=O)C(=O)NCC(=O)NCC(=O)NCC(=O)NCCCC[C@@H]2NC(=O)[C@@H](Cc3ccccc3)NC(=O)[C@H](CC(=O)O)NC(=O)CNC(=O)[C@H](CCCNC(=N)N)NC2=O)C(=O)NCC(=O)NCC(=O)NCC(=O)NCCCC[C@@H]2NC(=O)[C@@H](Cc3ccccc3)NC(=O)[C@H](CC(=O)O)NC(=O)CNC(=O)[C@H](CCCNC(=N)N)NC2=O)NC(=O)[C@@H](Cc2ccccc2)NC(=O)[C@H](CC(=O)O)NC(=O)CNC1=O [indium-111 labelled] | – | – | female athymic nude mice, liver | intravenous, 3 µCi, 4 h, U-87 MG glioma xenograft | – | tissue uptake | 1.98 ± 0.39 %ID/g
N=C(N)NCc1ccc(C(=O)NCCCC[C@H](NC(=O)CCCCCCC(=O)NCCCC[C@H](NC(=O)N[C@@H](CCC(=O)O)C(=O)O)C(=O)O)C(=O)O)cc1[131I] | – | – | SCID mouse, PC-3 xenografts, bone | 1 h | – | tissue uptake | 0.33 ± 0.09 %ID/g
C=Cc1cc(O)cc2nc(-c3ccc(O)c([76Br])c3)oc12 | – | – | female C57BL/6 mouse, ovaries | 3 h, high dose | – | tissue uptake | 0.1 ± 0.02 %ID/g
O=C(O)CC[C@H](NC(=O)O[C@@H](CCCCNC(=O)c1ccc([18F])cc1)C(=O)O)C(=O)O | – | – | mouse, PC-3 PIP/flu xenografts, fat | 30 min | – | tissue uptake | 1.23 ± 1.88 %ID/g
N=C(N)NCc1ccc(C(=O)NCCCC[C@H](NC(=O)N[C@@H](CCC(=O)O)C(=O)O)C(=O)O)cc1[131I] | – | – | SCID mouse, PC-3 xenografts, kidneys | 4 h | – | tissue uptake | 111 ± 61 %ID/g
CN[C@](C)(C[18F])C(=O)O | – | – | SCID mouse SK-OV-3 xenograft, spleen | 120 min, post injection | – | tissue uptake | 6.2 ± 0.9 %ID/g
CCNc1cc2[o+]c3cc(NCC)c(C)cc3c(-c3ccccc3C(=O)OCCOCC[18F])c2cc1C | – | – | rat, bone | 120 min | – | tissue uptake | 0.37 ± 0.05 %ID/g
O=C(c1ccc(F)cc1)C1CCN(C2Cc3c(cccc3OCC[18F])CC2O)CC1 (single isomer, unassigned; (-)) | – | – | Sprague-Dawley rat, male, spleen | intravenous, dose not given, 5 min | – | tissue uptake | 1.26 ± 0.452 %ID/g
N=C(N)NCc1ccc(C(=O)NCCCC[C@H](NC(=O)N[C@@H](CCC(=O)O)C(=O)O)C(=O)O)cc1[211At] | – | – | SCID mouse, PC-3 xenografts, liver | 14 h | – | tissue uptake | 0.6 ± 0.28 %ID/g
COc1cc2ncnc(Oc3cccc(N[11C](=O)Nc4cc(C(C)(C)C(F)(F)F)on4)c3)c2cc1OC | – | – | Balb/c nude mouse, female, A375 melanoma xenograft, liver | 6.6 MBq, 60 min | – | tissue uptake | 25.2 ± 0.57 %ID/g
COc1cc2ccnc(Cc3ccc(O[11CH3])c(OC)c3)c2cc1OC | – | – | Sprague-Dawley rats, kidney | intravenous, 0.08333 h | – | tissue uptake | 0.743 ± 0.05 %ID/g

Excerpt of the above:
SMILES | tested on | test | test system | setting | scale | quantity | result
O=C(c1ccc(F)cc1)C1CCN(C2Cc3c(cccc3OCC[18F])CC2O)CC1 (single isomer, unassigned; (-)) | – | – | Sprague-Dawley rat, male, spleen | intravenous, dose not given, 5 min | – | tissue uptake | 1.26 ± 0.452 %ID/g
N=C(N)NCc1ccc(C(=O)NCCCC[C@H](NC(=O)CCCCCCC(=O)NCCCC[C@H](NC(=O)N[C@@H](CCC(=O)O)C(=O)O)C(=O)O)C(=O)O)cc1[131I] | – | – | SCID mouse, PC-3 xenografts, bone | 1 h | – | tissue uptake | 0.33 ± 0.09 %ID/g
